Experimental data gathered from unrelated publications.
A part holds a random share of what one study measured.

Study 1 — technique: RNA Bind-n-Seq; molecule type: RNA; medium: in vitro; concentration: 200 nM; setting: whole 134-nt RNA, ends assumed; with: 150 mM LiCl; reference: input library; reading: higher = stronger binding; library: 7-deaza-guanosine replaces G
Target: Fragile X messenger ribonucleoprotein 1, C-terminal low-complexity region (Fmr1, Mus musculus, UniProt P35922)
All sequences stand within: GGGAGUUCUACAGUCCGACGAUC … UGGAAUUCUCGGGUGUCAAGG
| Strand | log2 enrichment |
| --- | --- |
| UGUCUUUCCUGGUGACUAGGAUGUCGUCGGAGGAGGACAAGAGCGUGGAGCAGCCGCAGCCGCCGCCACCACCCCCCGAGGAGCCUGGAG | -0.13 |
| AAGUCCUGUGCUACACAUCGUAUGUACCGAAUCGGGGAAAAAGGGGUGGGGAGGGGAAAGUAUUAUGUUACGCCGUUCGGAUCUGCACUU | -0.199 |
| GUCCUGUGCUACACAUCGUAUGUACCGAAUCGGAAAAAGGAAAAAAAGGUUUUUUUGGAAAGUAUUAUGUUACGCCGUUCGGAUCUGCAC | -2.3 |
| CCUCAAGUCCUGUGCUACACAUCGUAUGUACCGAAUCGGGGAGGGAGGGAGGGAAAGUAUUAUGUUACGCCGUUCGGAUCUGCACUUCCA | -1.48 |
| UGGAUCUUGGAGGGACCAACUUCCGUGUGCUUUGGGUGAAAGUAACGGACAAUGGGCUCCAGAAGGUGGAGAUGGAGAAUCAGAUCUAUG | -2.62 |
| CACAGACAAGACGCACCCACACAGACACAGAGGGAAGGGGUUGGGAUGGGGACAGGGUGCACAGCAGGGCGGGGUAGGACCCCAGCCCCU | 0.398 |
| GCAGGAAGUAAAAACAAAUGGAAAUGCUUCGGAUAGUGGCAGGGGUGGGGGUUGCUAAGGAAAGGGUGGGAUGGGAGUGGGAAAAGAGUU | 1.54 |
| UCCUCAAGUCCUGUGCUACACAUCGUAUGUACCGAAUCGGUUUGGUGGUGGAAAGUAUUAUGUUACGCCGUUCGGAUCUGCACUUCCAGC | -0.133 |
| CCUCAAGUCCUGUGCUACACAUCGUAUGUACCGAAUCGGGUGGGUGGGUGGGGAAAGUAUUAUGUUACGCCGUUCGGAUCUGCACUUCCA | -0.491 |
| CCUGUGCUACACAUCGUAUGUACCGAAUCGGGCCCCCCGGGGCCCCCCGGCCCCCCGGGGAAAGUAUUAUGUUACGCCGUUCGGAUCUGC | -2.93 |
| GCAGGAAGUAAAAACAAAUGGAAAUGCUUCGGGUAGUGGCAGGGGUGGGGGUUGCUAAGGAAAGGGUGGGAUGGGAGUGGGUAAAGAGUU | 1.31 |

Study 2 — technique: RNA Bind-n-Seq; molecule type: RNA; medium: in vitro; concentration: 365 nM; reference: no-protein control; reading: higher = stronger binding
Target: RNA binding protein fox-1 homolog 2, RRM domain, GST-SBP tag (RBFOX2, Homo sapiens, UniProt O43251-10, residues 100-194)
Setting: natural RNA segment, single round, ends assumed
All sequences stand within: GGGAGUUCUACAGUCCGACGAUC … UGGAAUUCUCGGGUGCCAA
Construct (chain): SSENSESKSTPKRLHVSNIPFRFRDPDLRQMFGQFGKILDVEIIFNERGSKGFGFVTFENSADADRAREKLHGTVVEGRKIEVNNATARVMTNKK
| Strand | RBNS enrichment (R) |
| --- | --- |
| UAGGACAGUGGUGACCUUGUCUGUGCCGGUGACUGCACCCUGCAGGUAACAGUGAAAGCUUUUAAGCCUCUGAGCCUCGAGACUGGGGAGAUUGAGUUUAUACCCCCUAG | 0.423 |
| GGAUGGCCCCAGCACAGCUUGACCUGAGGCUGUGGUCACAGCGGAGGUGUGGAGCCGAGGCCUACCCCGCAGACACCUUGGACAUCCUCCUCCCACCCGGCUGCAGAGGC | 0.529 |
| AGCUAAGAGAAAUCAGGGCAUGGAAAUUGAGUGUGUAAUAAAAAUUAAACUCUUCAUGUUAUAUAAUCAUGCAUAACUUCUAUCUUCAUUCUCUGAAGUUGCCUAGAGCA | 0.433 |
| AAAAAAGAAAAGGGUUUCCUAUCUGGUAUUAUAUAUGUCAAAUAAAUGUAUAAAGUAACACCCAAAUGUUAUUAGAAACUAGUCUUUUAGUAUUUGUAAUUUUCAACUCU | 0.443 |
| GGCUCCAGCCUAUGCCGUCCUGAAGAGCAUUAUCCAGGCCGGAUGCAGAGUGGCGAUAUAUUUAUCAGAAAGAUUAUAAAGUGUGUCCAGUUUUGCCUGUCUAUAAAAGA | 0.474 |
| GGUUUUGCCACCUCCUCUCUCAGUAUCACUCCCUCCUCCCCAAACCCCAAUCUCCAGUGUCUGUAGCUCUUGCCUGCAAGUCUUGCUUGUGGGGUGACGAGGGGUGUAGA | 0.316 |
| GCCCACGAUAGACCAGCUGUAGCUCAUUCCAGCCUGUACCUUGGAUGAGGGGUAGCCUCCCACUGCAUCCCAUCCUGAAUAUCCUUUGCAACUCCCCAAGAGUGCUUAUU | 0.659 |
| UGGGGCAGUCUGACUUCACUUUAGUGUAUGACGUCUGUAGCCAAUGGGAACGUGAAAUAUUGGUGCGAUCACUGAACCAAAGGGAUUGUGUUCUGUGACUUUGGUACUUU | 1.22 |
| UUCUUCUUCUUCCCAUUCCUGUCUGCCGCCUGAGGAGCGUCCGCCGCUGGAGGAGGCUUUGGUGCAUGUUGCUGUGAAGUCCUUCCGUGUGGCCACCCAGCCAGCUGGAG | 7.04 |
| AGACAGACCCACAGCCCUGCCCUUGUCUCUGAGGCUGAAGACCCCCUGACUCCCAUGCUGUGCUUGCCGCUCUGAAACAAACAGAGGCUGGAACUUUGUGGUCCUUGCCG | 0.35 |
| UGUCUGAGCUUUCCUGACCCCUGUAUUGUAUCCUUGCUCCCAGGGCUCCCUUCAUGGCUUGUGAACUGUUAACUUGGUAUCUCAGGUUAAACUGUCAGCUGGUCUAGCCU | 0.49 |
| UUUGGGGCAUUUUUCUACAAACACAGCCUCCUCUCCCCCUGUAUGGACUGGCUAUAACCAUAAGCCAGGCGCUUUCACCAAGAUGGCUGGUGGCCAAGGUGGGCAGUAGG | 0.485 |

Study 3 — technique: protein binding microarray; molecule type: double-stranded DNA, one strand shown; medium: in vitro; concentration: not given; reference: not given; reading: higher = stronger binding
Target: Histone acetyltransferase KAT6A, winged helix 1, GST fusion (KAT6A, Homo sapiens, UniProt Q92794, residues 1-85)
Setting: 8-mer, flanks averaged, mean of 2 arrays, mostly near background
Residues (chain): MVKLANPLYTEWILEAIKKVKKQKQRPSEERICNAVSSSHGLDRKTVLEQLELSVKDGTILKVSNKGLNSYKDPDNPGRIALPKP
| Strand | E-score |
| --- | --- |
| AATCTCAT | -0.13 |
| CTAGCTAC | -0.0839 |
| ATTTACGA | -0.122 |
| ATGAGCCC | 0.0202 |
| GTCTGTGA | -0.124 |
| AAATGACG | 0.1 |
| TCCGAAGA | -0.0916 |
| GCTACTGA | -0.109 |
| TCCATTCA | -0.321 |
| AACTTTGG | -0.275 |
| CCACTCCC | 0.00949 |
| CAGCAAAC | -0.151 |
| CCATGAGC | -0.103 |
| ATGATCCC | 0.0912 |
| CAATGTGA | -0.067 |
| ACCTTGCA | -0.131 |
| ATTCGCCG | 0.276 |
| CCGTAAAC | 0.293 |
| AGGGATCC | 0.0585 |
| ACTTTGCC | 0.0439 |
| AAGGTATA | -0.186 |
| GAATTGAC | -0.157 |
| GAGCCGCC | 0.363 |

Study 4 — technique: protein-binding microarray; molecule type: double-stranded DNA, one strand shown; medium: in vitro; concentration: 0.8 µM; setting: whole 60-bp probe, no competitor; reading: higher = stronger binding; all sequences stand within: … GTCTTGATTCGCTTGACGCTGCTG
Target: Centromere-binding protein 1, full length, N-terminal tag (CBF1, Saccharomyces cerevisiae, UniProt P17106, residues 1-351)
Chain of UniProt P17106 (whole entry, looked up): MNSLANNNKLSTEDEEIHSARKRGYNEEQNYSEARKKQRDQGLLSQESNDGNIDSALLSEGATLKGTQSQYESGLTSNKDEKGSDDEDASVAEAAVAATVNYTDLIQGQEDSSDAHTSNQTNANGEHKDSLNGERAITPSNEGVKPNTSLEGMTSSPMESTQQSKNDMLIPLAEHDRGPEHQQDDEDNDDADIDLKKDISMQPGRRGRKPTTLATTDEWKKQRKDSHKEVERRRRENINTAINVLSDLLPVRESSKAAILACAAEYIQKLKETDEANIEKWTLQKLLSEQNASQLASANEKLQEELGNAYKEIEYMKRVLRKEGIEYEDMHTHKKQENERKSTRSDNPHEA
| Strand | fluorescence intensity [a.u.] |
| --- | --- |
| GAAATAAGGGATAGTGGCATCACGAGAAGCTGTTAG | 705 |
| CTAATGCAATGCCATCACCAGCAAAATGAACCATTC | 501 |
| CTAGGAATGAAACATTATCACGTACAAGATGAATTC | 584 |
| GAAAGCCATAATTTACACCTCACGTACATAGTTTAG | 546 |
| CTACTGTGGCCCCCTCACGCTGTTTAATGACGATTC | 548 |
| CTAAGGTCCACGTACGTCACAAATATCTTCTTTTTC | 473 |
| CTACAAAAAATGGAGAACATCAGGAACAAAGCGTTC | 550 |
| GAAAAATCCAAGCGAAACACCACGCAAACACAATAG | 518 |
| TGTACGAAGCTATTTCACCAGATTATAGTAGTTAGG | 524 |
| CTATTTCAAATATTTCACGCGCAAAGAAAGAATTTC | 665 |
| GAACTATGGTTCTGTCACGGGGAGAGATAAGAATAG | 1410 |
| GAATCCGTGGATCGCCATGTGATATTTCTATTTTAG | 1300 |
| CTAAACCTAATGCTACTGATCACAGCAATAAGGTTC | 497 |
| GAATCGGTATATTAACAGCACGTGTATTTTCTTTAG | 7140 |
| GAATTTAGGCACCGTCAGGTACTAAGGGCTAAATAG | 469 |
| TGTACGAAGCTATTTCAGTTGATTATAGTAGTTAGG | 510 |
| CTAGGTAACAAATCTGGTGAAATCACCATTAAATTC | 492 |
| CTACAAAGATGCTCTTGTGACGTCCAAAACCAGTTC | 576 |
| GAATACTTTTCGTTCAACGTGATCTTTGTGTTCTAG | 1450 |
| GAAAAACTTCTATTGAAGGTGACATAGAGGCATTAG | 538 |

Study 5 — technique: aptamer microarray, sandwich; molecule type: DNA with 2'F-ANA; medium: in vitro; concentration: 200 nM; with: Cy3 exosite-II aptamer, 400 nM; reading: higher = stronger binding; strand: GGTTGGTGTGGTTGG
Target: Prothrombin, mature alpha-thrombin (F2, Homo sapiens, UniProt P00734)
Setting: whole 15-mer aptamer, many near background
| Modification | mean fluorescence intensity |
| --- | --- |
| 2'F-ANA at 1 2 3 4 7 9 11 13 14 | 55.5 a.u. |
| 2'F-ANA at 1 2 6 12 | 331 a.u. |
| 2'F-ANA at 1 3 7 9 10 15 | 89.8 a.u. |
| 2'F-ANA at 1 3 6 7 9 12 | 443 a.u. |
| 2'F-ANA at 1 2 5 6 7 8 11 15 | 73.7 a.u. |
| 2'F-ANA at 1 2 3 5 6 9 10 11 13 | 57.7 a.u. |
| 2'F-ANA at 1 11 13 15 | 139 a.u. |
| 2'F-ANA at 3 7 9 10 11 12 13 | 553 a.u. |
| 2'F-ANA at 1 3 4 5 6 7 10 15 | 56.9 a.u. |
| 2'F-ANA at 2 3 4 6 7 9 10 12 13 15 | 209 a.u. |
| 2'F-ANA at 1 2 8 9 12 13 14 15 | 73.1 a.u. |
| 2'F-ANA at 2 3 11 13 | 697 a.u. |
| 2'F-ANA at 1 2 3 4 9 10 11 12 13 14 15 | 53.6 a.u. |
| 2'F-ANA at 1 2 6 8 9 10 11 13 15 | 53.6 a.u. |
| 2'F-ANA at 1 2 5 6 9 10 | 45.2 a.u. |
| 2'F-ANA at 2 3 4 5 8 9 10 14 | 49.9 a.u. |
| 2'F-ANA at 1 7 8 10 11 12 13 14 15 | 57.4 a.u. |
| 2'F-ANA at 1 3 5 8 9 11 14 15 | 46.8 a.u. |
| 2'F-ANA at 1 2 6 8 12 14 | 146 a.u. |
| 2'F-ANA at 1 2 4 5 6 10 11 12 15 | 53.1 a.u. |

A few entries again (study 3):
| Strand | E-score |
| --- | --- |
| TCCATTCA | -0.321 |
| AAATGACG | 0.1 |
| AGGGATCC | 0.0585 |
| GAGCCGCC | 0.363 |
| CCACTCCC | 0.00949 |
| ATGAGCCC | 0.0202 |
